{"data": "Experimental data of several laboratories", "note": "A part holds a random share of what one study measured. Positions count from the first letter of the parent shown."}
{"data": "Set 1", "target": "Histone acetyltransferase KAT6A, winged helix 2, GST fusion (KAT6A, Homo sapiens, UniProt Q92794, residues 85-181)", "technique": "protein binding microarray", "form": "double-stranded DNA, one strand shown", "matrix": "in vitro", "tested at": "not given", "notes": "8-mer, flanks averaged, mean of 2 arrays, mostly near background", "baseline": "not given", "direction": "higher = stronger binding", "Target sequence (chain)": "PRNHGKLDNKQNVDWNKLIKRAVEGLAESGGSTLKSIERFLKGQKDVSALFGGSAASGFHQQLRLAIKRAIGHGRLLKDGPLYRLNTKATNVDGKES"}
{"Strand": "AGGCTTAG", "E-score": 0.026}
{"Strand": "GCACGTAA", "E-score": -0.206}
{"Strand": "CATCTCAG", "E-score": -0.101}
{"Strand": "GGAGGTTA", "E-score": -0.192}
{"Strand": "ACCTGGTC", "E-score": 0.0415}
{"Strand": "GCCACTAA", "E-score": 0.0558}
{"Strand": "AAATTGAG", "E-score": -0.0587}
{"Strand": "ACTGTAAT", "E-score": -0.199}
{"Strand": "CTTCAACC", "E-score": -0.0442}
{"Strand": "CATCCCCA", "E-score": -0.0788}
{"Strand": "CCGTGGTA", "E-score": -0.0657}
{"Strand": "CACGTTAA", "E-score": -0.0451}
{"Strand": "GTAGGCGA", "E-score": 0.0682}
{"Strand": "AGCTTTCA", "E-score": -0.0888}
{"Strand": "ACAGGTGA", "E-score": -0.028}
{"Strand": "AACGGATT", "E-score": 0.113}
{"Strand": "ACGCGGGC", "E-score": 0.192}
{"Strand": "GACTCGGC", "E-score": 0.00919}
{"Strand": "AGGCCGCG", "E-score": 0.121}
{"data": "Set 2", "target": "CCNE2, cyclin fold, Cln2 fusion (human)", "technique": "yeast growth competition, sequencing", "matrix": "yeast", "notes": "weak parent motif", "baseline": "not given", "direction": "higher = stronger binding", "parent": "SAMHD1 docking peptide (human); ASKSRVQLFKDDP"}
{"Change": "ASKSRVQMFKDDP [L8M]", "normalised enrichment score": 0.104}
{"Change": "ASKSIVQLFKDDP [R5I]", "normalised enrichment score": 0.229}
{"Change": "ASKSRVQLYKDDP [F9Y]", "normalised enrichment score": 0.208}
{"Change": "ASKSRVQLFKIDP [D11I]", "normalised enrichment score": 0.113}
{"Change": "ASKSRVQLFKDQP [D12Q]", "normalised enrichment score": 0.101}
{"Change": "ASKSMVQLFKDDP [R5M]", "normalised enrichment score": -0.177}
{"Change": "ASKSRVQLQKDDP [F9Q]", "normalised enrichment score": 0.0569}
{"Change": "ASKSRVQLTKDDP [F9T]", "normalised enrichment score": 0.0983}
{"Change": "ASKSRVQLFKDRP [D12R]", "normalised enrichment score": 0.589}
{"Change": "ASKSRVQIFKDDP [L8I]", "normalised enrichment score": 0.196}
{"Change": "ASKSRCQLFKDDP [V6C]", "normalised enrichment score": 0.175}
{"Change": "ASKSRVQLFKDLP [D12L]", "normalised enrichment score": -0.0179}
{"Change": "ASKSRVQGFKDDP [L8G]", "normalised enrichment score": 0.179}
{"data": "Set 3", "target": "RNA binding protein fox-1 homolog 2, RRM domain, GST-SBP tag (RBFOX2, Homo sapiens, UniProt O43251-10, residues 100-194)", "technique": "RNA Bind-n-Seq", "form": "RNA", "matrix": "in vitro", "tested at": "365 nM", "notes": "natural RNA segment, single round, ends assumed", "baseline": "no-protein control", "direction": "higher = stronger binding", "shared flanks, not repeated": "GGGAGUUCUACAGUCCGACGAUC … UGGAAUUCUCGGGUGCCAA"}
{"Strand": "GAUAAAAUUGCCAAAGUGAUCCAAGGAUUGUGCAUGUUGGGAAACCCAUAUGAGAGAAAGGAUUCUCAUACUUAGAACUUUCCUAUGAAGAAAUGGUGGUAAACUUUCUC", "RBNS enrichment (R)": 18.7}
{"Strand": "AUUGACUUUUAUUCCAUUUUUAUAUGAAGGUGUUAGAUAUAGCCAUCAAUUUAUUUUUCUACAUUCCCUCUACGCUUAUGUAAUUUUCUAUUUUUAAAUCUUCUCUUAAA", "RBNS enrichment (R)": 0.856}
{"Strand": "GGCUGCUCAAUCGACACCCCGAGUUCUCAUGACUGGGAAGAUAGUUUUCUUCAGGUGUCAAUGGCGUUAGACUCCCAGGAAGACUAGCCCUGCCCACAGGGCCACCUGUU", "RBNS enrichment (R)": 0.404}
{"Strand": "GUGGUUACUUUUUAUAAUGUGAAAUGGAUAAUGAGCGUAUUUAAAAUAAAGCAGAGGUUAAUGAGAUACCUGUAUUUGUGAGAAAAAUUUUAAAUACUUUCCUACAGUUC", "RBNS enrichment (R)": 0.739}
{"Strand": "AGUUGGCUUGGACAAGUUUAACUUUAUUUUUAAUGUGUUAAUUACUUGGAAUAAAUGCAUUAAUCUCUGUUUCCUUCUGGAUUUUUGUUUUGAAAUCACACACAUUUGAA", "RBNS enrichment (R)": 0.751}
{"Strand": "CUUAGGAACAAGGAGUUGACAAGAGACUCCCCAGAGAGUCCUUGCGUCCACAAGGCCUCCUGAUACCAGCUUGGCUUCCCACAGCAAGCUCUAACUCUGAGAGCCUUUUG", "RBNS enrichment (R)": 0.416}
{"Strand": "GGUGGCUCCGAGCAUGAGGUCCGCCUCCUGGGCGAGACCCAGCAGUGGACAGCAUGGUCCUCACACCCAGCUCCCUGCACACCCAGGCCAGCCACCCCUCCCGCUCGUGC", "RBNS enrichment (R)": 0.446}
{"Strand": "GCCCAACCUUAGGAAUAUAGUGCCCCAAAAGGCGGAUGCUUCUUCCAUUAUCUUAUUUUCUUUGAUACUUUAUUUAAUUAGAUGUUUAUAAAGAAAUGGGUUUAUUUUUC", "RBNS enrichment (R)": 0.446}
{"data": "Further values, each from its own experiment"}
{"Molecule": "PhoQ, residues 284 288 289 292 302 303 TGYLSA", "target": "PhoP, residues 12 14 15 18 19 TPLRH (Escherichia coli, UniProt P23836)", "test": "Sort-seq, refers to: YFP reporter", "system": "E. coli", "conditions": "PhoQ-PhoP variant library, with: 10 µM Mg2+", "scale": "baseline: high Mg2+ state, higher = stronger signaling", "quantity": "fold induction", "result": 8.73}
{"note": "Repeated from above (set 1):"}
{"Strand": "GTAGGCGA", "E-score": 0.0682}
{"Strand": "AGCTTTCA", "E-score": -0.0888}
{"Strand": "ACAGGTGA", "E-score": -0.028}
{"Strand": "AACGGATT", "E-score": 0.113}
{"Strand": "ACGCGGGC", "E-score": 0.192}
